Assay results collected from several papers.
Compare with care: the assays were run in different laboratories. ± marks the error that the study gave.
KDM1A: Lysine-specific histone demethylase 1A (KDM1A, Homo sapiens, UniProt O60341)
Rhomboid protease AarA: Rhomboid protease AarA (Providencia stuartii, UniProt P46116)
Sequence of UniProt P46116 (whole entry, looked up): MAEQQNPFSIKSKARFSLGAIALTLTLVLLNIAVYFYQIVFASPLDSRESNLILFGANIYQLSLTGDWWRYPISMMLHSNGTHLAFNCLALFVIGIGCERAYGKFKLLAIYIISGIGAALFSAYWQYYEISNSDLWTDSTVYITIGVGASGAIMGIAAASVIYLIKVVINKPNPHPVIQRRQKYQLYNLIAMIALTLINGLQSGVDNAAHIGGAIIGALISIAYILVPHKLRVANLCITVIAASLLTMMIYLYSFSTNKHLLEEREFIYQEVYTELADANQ
Sequence of UniProt Q9HB29 (whole entry, looked up): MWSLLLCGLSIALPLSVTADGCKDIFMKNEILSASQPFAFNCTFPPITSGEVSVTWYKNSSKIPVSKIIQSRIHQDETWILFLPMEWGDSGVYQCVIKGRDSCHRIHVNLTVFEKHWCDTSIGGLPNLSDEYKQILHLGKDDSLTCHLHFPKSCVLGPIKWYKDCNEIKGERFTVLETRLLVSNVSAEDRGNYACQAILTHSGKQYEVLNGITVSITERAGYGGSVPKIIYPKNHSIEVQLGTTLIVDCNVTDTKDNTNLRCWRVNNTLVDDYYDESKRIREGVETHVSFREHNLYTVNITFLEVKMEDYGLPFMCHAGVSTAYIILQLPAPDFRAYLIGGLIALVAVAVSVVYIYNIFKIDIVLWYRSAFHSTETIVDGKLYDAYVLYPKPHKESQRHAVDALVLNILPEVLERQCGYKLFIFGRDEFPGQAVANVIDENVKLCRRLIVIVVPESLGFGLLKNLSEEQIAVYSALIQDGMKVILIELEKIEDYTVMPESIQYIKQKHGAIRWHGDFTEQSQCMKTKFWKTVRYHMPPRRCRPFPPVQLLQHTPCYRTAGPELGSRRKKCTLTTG
Sequence of UniProt P10721 (whole entry, unmodified, looked up): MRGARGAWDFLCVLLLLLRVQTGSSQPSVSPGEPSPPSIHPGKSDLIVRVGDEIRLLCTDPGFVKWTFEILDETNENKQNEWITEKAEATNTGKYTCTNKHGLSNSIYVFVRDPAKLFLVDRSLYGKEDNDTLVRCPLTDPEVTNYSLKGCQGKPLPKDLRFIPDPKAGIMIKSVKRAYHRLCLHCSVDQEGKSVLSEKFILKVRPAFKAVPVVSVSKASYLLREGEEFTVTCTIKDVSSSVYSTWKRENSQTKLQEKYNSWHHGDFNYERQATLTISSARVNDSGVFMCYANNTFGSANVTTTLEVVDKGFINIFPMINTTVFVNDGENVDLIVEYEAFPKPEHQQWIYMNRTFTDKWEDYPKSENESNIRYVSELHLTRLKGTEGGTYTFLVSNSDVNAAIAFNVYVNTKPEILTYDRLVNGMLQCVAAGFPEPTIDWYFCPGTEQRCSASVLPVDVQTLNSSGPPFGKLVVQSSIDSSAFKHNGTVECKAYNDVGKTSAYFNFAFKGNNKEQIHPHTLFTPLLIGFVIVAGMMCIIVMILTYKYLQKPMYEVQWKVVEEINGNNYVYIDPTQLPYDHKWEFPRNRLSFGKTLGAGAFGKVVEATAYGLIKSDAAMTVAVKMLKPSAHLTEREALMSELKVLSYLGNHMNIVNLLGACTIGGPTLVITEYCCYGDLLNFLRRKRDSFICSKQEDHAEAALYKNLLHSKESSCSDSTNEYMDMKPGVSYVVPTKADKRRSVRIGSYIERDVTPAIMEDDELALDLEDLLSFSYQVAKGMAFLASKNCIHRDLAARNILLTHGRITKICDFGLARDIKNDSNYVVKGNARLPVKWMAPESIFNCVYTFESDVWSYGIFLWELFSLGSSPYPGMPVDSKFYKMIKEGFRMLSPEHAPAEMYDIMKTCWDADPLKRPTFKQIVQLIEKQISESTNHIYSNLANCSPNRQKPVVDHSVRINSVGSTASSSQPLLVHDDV
Sequence of UniProt Q9NQR1 (whole entry, looked up): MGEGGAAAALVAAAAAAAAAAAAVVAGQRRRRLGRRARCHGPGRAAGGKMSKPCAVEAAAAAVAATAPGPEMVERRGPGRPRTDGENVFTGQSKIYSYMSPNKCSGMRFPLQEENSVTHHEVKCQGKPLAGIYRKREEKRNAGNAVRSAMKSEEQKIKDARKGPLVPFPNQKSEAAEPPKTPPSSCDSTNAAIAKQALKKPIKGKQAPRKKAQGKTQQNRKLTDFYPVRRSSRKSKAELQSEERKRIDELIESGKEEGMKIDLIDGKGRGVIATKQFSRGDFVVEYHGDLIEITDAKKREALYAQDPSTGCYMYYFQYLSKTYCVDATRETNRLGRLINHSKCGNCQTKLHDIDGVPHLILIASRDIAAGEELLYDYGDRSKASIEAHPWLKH
Sequence of UniProt P07711 (whole entry, looked up): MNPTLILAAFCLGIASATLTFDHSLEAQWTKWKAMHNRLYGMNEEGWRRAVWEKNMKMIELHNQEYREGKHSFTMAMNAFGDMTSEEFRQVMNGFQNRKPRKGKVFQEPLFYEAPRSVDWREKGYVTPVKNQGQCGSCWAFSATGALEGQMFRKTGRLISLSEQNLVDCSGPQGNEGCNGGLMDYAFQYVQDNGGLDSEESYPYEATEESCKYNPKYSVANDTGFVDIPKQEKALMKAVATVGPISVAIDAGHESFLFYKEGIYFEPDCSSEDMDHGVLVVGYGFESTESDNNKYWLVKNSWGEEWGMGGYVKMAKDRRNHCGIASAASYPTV
Sequence of UniProt P12295 (whole entry, looked up): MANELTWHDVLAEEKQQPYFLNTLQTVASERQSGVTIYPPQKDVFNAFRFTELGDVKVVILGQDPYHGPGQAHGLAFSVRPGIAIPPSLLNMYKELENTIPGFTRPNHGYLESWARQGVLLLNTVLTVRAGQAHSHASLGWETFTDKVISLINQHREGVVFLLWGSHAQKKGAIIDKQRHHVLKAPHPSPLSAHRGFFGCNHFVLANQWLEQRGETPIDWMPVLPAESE
Sequence of UniProt P10144 (whole entry, looked up): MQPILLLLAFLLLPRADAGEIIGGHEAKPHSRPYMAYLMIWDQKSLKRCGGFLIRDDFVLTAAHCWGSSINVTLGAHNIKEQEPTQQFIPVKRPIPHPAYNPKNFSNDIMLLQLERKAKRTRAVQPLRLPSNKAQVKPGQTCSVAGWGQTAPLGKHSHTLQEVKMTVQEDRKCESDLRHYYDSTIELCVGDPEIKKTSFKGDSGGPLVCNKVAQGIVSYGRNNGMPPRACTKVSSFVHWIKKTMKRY

`Cc1ccc(C)c(-c2ccc3nc(NC(=O)C4CCCCC4)nn3c2)c1` has a remaining activity of 98% (AMPK; enzyme activity; 10 µM).
With `Nc1ncc(-c2cc(-c3cnn(CC(F)(F)F)c3)ncc2F)nc1C(=O)NC1CNCC(F)C1` (stereo not shown) the remaining binding was 100% (EPHB6; KINOMEscan; 1 µM; relative to: DMSO control).
For `CC(C)[C@@H]1NC(=O)[C@H](Cc2ccccc2)NC(=O)CSC[C@@H](C(N)=O)NC(=O)[C@H](CCC(=O)O)NC(=O)[C@H](CO)NC(=O)[C@H](Cc2c[nH]c3cccc(Cl)c23)NC(=O)[C@H](C2CCCCC2)NC(=O)[C@H](C(C)C)NC(=O)[C@H](Cc2ccc(O)cc2)NC(=O)[C@H](CC(=O)O)NC(=O)[C@H](Cc2c[nH]c3ccccc23)NC(=O)[C@H](Cc2ccc(N)nc2)NC(=O)[C@H](Cc2c[nH]c3ccc(Cl)cc23)NC(=O)[C@H](CCC(=O)O)NC1=O`, the remaining activity was 95.8% (Interleukin-1 receptor-like 2 (IL1RL2, Homo sapiens, UniProt Q9HB29); reporter gene (SEAP), inhibitor, HEK-Blue IL-36R reporter; HEK-Blue IL-36R cells; 0.015 µM, 6 h, with: IL-36γ 0.01 ng/mL).
With `COC(=O)c1cccc([C@@H]2C[C@H]2NC2CCC2)c1` the remaining activity was 41.4% (KDM1A; demethylase activity, inhibitor; 16.67 µM, with: H3K4me2 peptide).
`CC(C)(C)c1ccc(C2CC(=O)N2S(=O)(=O)c2cccc(Cl)c2)cc1` (stereo not shown) has a remaining activity of 94% (Rhomboid protease AarA; substrate cleavage, gel-based; 100 µM; relative to: DMSO).
`COC1CN([C@H]2CC[C@H]([C@@]3(C)Oc4c(Cl)cc(C(=O)NCc5c(SC)cc(C)[nH]c5=O)c(C)c4O3)CC2)C1` — result for “log2 fold change”: 0.812 (RNA-seq, measured: RHPN2 mouse homolog; mouse, HT-1376 xenograft, whole blood; dose not given; relative to: vehicle).
With `Cc1cccc(C2CC(=O)N2S(=O)(=O)c2cccc(Cl)c2)c1` (stereo not shown) the remaining activity was 74% (Rhomboid protease AarA; substrate cleavage, gel-based; 100 µM; relative to: DMSO).
`COc1ccccc1-c1ccncc1C(=O)Nc1nnc(OCc2ccc(Cl)cc2)s1` has a remaining activity of 78% (DNA polymerase theta, helicase domain (POLQ, Homo sapiens, UniProt O75417); ATPase activity, ADP-Glo; 0.004 µM; relative to: 0 µM cpd).
With `OCC1CCCN(CCNc2cc(-c3ccccc3)nc3ccnn23)C1` (stereo not shown) the remaining activity was 99.5 ± 4.8% (ung (Escherichia coli, UniProt P12295); enzyme activity, inhibitor; concentration not given, counter-screen).
For `O=C(Nc1cccc([C@@H]2C[C@H]2NC2CCC2)c1)c1ccccc1`, the remaining activity was 97.1% (KDM1A; demethylase activity, inhibitor; 0.02286 µM, with: H3K4me2 peptide).
With `CNS(=O)(=O)Nc1nccc(Cc2c(C)c3ccc(Oc4ncccc4F)cc3oc2=O)c1F` the IC50 was 48.5 nM (HCC2935; cell viability; 7 days).
For `CN(C)C/C=C/C(=O)Nc1ccc2nc(NCCCCCN(C)C)nc(NCCCCCCN(C)C)c2c1`, the inhibition was 0% (KMT5A (Homo sapiens, UniProt Q9NQR1); enzyme activity, inhibitor, radiometric; 10 µM).
With `CN(C)C(=O)c1cccc([C@@H]2C[C@H]2NC2CCC2)c1` the remaining activity was 40.3% (KDM1A; demethylase activity, inhibitor; 50 µM, with: H3K4me2 peptide).
`CN1CCCNC(=O)c2cccc(c2)C(=O)NCCCN(C)CCCNc2cccc3c2C(=O)c2cccc(c2C3=O)NCCC1` — result for “log2 fold change”: 0.708 (SAS; RNA-Seq, measured: DDX20 mRNA; 1 µM, 6 h; relative to: untreated cells).
For `O=C=[N][Ru-4]123([n]4c5ccc(O)cc5c5c6c(c7cc(F)c[n+]1c7c54)C(=O)NC6=O)[S+]1CC[S+]2CC[S+]3CC1` (stereo not shown), the remaining activity was 73% (KIT (Homo sapiens, UniProt P10721, V654A); enzyme activity; 100 nM, human enzyme, with: 10 µM ATP; relative to: untreated).
For `C[C@](C(=O)NC1CCOCC1)(c1cncnc1)N(C(=O)[C@H](F)Cl)c1ccc(OC(F)(F)Cl)cc1`, the remaining activity was 105% (Granzyme B (GZMB, Homo sapiens, UniProt P10144); enzyme activity, inhibitor; 10 µM).
For `COC(=O)c1cc2cc3c(cc2oc1=O)N(CC(=O)NC(Cc1cccc(Cl)c1)C(=O)NCC=CS(=O)(=O)c1ccccc1)CCC3` (stereo not shown), the remaining activity was 7% (Procathepsin L (CTSL, Homo sapiens, UniProt P07711); inhibitor; 5 µM, 60 min, with: Z-Phe-Arg-pNA; relative to: uninhibited control).
`O=C(Nc1nncs1)c1cccc([C@@H]2C[C@H]2NC2CCC2)c1` has a remaining activity of 98.7% (KDM1A; demethylase activity, inhibitor, Amplex Red; 0.002743 µM, with: H3K4me2 peptide; relative to: vehicle).
For `C=CC(=O)Nc1cccc(Cn2ncc3cnc(Nc4cnn(CCOC)c4)nc32)c1`, “percent of control” read 27% (FGFR2 human; binding, KINOMEscan; 100 nM; lower = stronger binding).

Some of these lines once more:
For `O=C(Nc1cccc([C@@H]2C[C@H]2NC2CCC2)c1)c1ccccc1`, the remaining activity was 97.1% (KDM1A; demethylase activity, inhibitor; 0.02286 µM, with: H3K4me2 peptide).
With `CN(C)C(=O)c1cccc([C@@H]2C[C@H]2NC2CCC2)c1` the remaining activity was 40.3% (KDM1A; demethylase activity, inhibitor; 50 µM, with: H3K4me2 peptide).
